Measurements gathered from unrelated publications.
Compare with care: the assays were run in different laboratories. ± marks the error that the study gave.
inhA: Enoyl-[acyl-carrier-protein] reductase [NADH] (inhA, Mycobacterium tuberculosis, UniProt P9WGR1)

The chains behind the UniProt entries cited, without tags or fusion partners. Residues count along the entry.
UniProt P9WGR1, whole entry: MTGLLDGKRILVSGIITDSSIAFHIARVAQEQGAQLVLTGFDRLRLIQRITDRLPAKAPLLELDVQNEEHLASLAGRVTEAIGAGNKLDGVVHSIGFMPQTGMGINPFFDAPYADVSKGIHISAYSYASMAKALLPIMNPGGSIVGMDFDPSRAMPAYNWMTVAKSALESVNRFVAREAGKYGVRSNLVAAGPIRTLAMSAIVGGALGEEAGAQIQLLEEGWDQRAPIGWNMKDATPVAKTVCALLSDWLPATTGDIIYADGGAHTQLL
UniProt Q9GZZ6, 25-450 limits assumed: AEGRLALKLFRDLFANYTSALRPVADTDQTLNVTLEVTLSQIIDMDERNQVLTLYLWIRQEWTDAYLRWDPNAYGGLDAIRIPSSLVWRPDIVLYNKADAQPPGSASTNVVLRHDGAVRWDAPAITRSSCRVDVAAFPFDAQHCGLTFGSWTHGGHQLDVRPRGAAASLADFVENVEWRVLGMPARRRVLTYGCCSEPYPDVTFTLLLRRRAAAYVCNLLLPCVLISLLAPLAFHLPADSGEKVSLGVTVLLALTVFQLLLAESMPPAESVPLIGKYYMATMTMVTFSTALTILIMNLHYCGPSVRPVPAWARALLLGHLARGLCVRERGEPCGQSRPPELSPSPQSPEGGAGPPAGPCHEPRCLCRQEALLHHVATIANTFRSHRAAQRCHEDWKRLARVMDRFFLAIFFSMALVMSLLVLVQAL
UniProt Q9UGM1, 26-479 limits assumed: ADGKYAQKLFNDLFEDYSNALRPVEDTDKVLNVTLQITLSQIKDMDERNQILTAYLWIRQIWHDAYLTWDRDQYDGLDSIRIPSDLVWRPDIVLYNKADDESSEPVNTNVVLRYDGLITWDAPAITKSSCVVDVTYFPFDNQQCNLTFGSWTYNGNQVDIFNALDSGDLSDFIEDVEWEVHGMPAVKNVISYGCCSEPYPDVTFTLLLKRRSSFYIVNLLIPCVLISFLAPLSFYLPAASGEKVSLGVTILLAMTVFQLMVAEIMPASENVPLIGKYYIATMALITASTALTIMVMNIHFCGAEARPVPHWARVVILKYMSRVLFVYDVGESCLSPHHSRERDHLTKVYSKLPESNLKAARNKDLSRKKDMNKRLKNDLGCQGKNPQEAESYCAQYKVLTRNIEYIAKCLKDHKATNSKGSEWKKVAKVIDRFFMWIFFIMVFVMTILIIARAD
UniProt P22303, whole entry, looked up: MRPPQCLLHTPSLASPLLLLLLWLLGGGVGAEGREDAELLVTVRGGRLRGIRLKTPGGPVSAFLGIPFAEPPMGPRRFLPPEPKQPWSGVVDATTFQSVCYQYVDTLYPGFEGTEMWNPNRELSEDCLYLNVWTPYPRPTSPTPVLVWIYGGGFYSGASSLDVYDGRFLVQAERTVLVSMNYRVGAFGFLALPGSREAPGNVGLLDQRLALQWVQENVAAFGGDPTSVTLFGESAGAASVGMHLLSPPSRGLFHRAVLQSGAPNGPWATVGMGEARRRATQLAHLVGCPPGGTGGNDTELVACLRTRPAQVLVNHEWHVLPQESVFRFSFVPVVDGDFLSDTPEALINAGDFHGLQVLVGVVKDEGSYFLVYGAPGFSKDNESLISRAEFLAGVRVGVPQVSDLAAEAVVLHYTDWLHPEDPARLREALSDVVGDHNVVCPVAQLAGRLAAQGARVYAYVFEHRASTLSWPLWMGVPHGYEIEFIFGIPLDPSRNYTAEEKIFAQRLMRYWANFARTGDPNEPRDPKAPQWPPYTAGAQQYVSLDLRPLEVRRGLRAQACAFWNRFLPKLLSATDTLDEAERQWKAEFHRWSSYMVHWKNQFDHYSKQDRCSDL
UniProt P08912, whole entry: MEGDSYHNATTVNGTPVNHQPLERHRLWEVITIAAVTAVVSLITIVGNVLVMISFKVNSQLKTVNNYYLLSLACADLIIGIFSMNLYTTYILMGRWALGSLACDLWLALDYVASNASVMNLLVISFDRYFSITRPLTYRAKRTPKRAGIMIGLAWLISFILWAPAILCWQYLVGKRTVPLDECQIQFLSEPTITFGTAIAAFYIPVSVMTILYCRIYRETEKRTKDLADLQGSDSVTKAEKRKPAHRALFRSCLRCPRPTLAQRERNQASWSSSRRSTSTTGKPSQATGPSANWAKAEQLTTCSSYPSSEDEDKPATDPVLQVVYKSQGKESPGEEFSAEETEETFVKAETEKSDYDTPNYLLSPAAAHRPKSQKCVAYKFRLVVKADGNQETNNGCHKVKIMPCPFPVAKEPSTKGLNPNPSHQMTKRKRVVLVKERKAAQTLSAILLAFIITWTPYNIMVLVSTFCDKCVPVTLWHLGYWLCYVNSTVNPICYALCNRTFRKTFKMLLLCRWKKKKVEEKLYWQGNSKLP
UniProt P06730, whole entry: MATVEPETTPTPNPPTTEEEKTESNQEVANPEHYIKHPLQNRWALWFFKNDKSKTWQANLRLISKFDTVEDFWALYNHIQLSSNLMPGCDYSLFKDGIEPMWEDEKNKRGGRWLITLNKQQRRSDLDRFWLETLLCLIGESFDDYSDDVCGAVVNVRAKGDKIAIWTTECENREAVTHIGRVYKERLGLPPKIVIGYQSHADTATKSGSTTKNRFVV
UniProt P35372, whole entry, looked up: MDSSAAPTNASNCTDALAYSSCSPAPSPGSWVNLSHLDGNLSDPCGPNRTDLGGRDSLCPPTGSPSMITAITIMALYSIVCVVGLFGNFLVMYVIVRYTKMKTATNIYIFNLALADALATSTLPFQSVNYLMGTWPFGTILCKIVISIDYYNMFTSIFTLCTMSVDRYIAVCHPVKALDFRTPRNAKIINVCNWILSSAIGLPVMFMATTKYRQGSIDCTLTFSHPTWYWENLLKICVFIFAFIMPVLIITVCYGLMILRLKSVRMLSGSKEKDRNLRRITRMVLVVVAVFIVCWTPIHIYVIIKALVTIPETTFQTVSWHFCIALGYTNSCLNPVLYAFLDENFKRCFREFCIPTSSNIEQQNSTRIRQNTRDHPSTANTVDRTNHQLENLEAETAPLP
UniProt O95551, whole entry: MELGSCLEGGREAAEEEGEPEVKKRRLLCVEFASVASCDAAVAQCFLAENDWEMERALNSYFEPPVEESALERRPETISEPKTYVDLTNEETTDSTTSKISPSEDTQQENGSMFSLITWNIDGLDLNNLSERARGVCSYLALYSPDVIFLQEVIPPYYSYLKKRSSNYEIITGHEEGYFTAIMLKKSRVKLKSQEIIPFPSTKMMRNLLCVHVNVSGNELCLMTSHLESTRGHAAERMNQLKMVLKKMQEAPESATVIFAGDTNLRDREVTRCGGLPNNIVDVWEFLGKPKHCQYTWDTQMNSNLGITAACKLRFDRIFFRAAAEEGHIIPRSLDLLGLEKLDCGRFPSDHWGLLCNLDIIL
UniProt F1M9V7, 1-920: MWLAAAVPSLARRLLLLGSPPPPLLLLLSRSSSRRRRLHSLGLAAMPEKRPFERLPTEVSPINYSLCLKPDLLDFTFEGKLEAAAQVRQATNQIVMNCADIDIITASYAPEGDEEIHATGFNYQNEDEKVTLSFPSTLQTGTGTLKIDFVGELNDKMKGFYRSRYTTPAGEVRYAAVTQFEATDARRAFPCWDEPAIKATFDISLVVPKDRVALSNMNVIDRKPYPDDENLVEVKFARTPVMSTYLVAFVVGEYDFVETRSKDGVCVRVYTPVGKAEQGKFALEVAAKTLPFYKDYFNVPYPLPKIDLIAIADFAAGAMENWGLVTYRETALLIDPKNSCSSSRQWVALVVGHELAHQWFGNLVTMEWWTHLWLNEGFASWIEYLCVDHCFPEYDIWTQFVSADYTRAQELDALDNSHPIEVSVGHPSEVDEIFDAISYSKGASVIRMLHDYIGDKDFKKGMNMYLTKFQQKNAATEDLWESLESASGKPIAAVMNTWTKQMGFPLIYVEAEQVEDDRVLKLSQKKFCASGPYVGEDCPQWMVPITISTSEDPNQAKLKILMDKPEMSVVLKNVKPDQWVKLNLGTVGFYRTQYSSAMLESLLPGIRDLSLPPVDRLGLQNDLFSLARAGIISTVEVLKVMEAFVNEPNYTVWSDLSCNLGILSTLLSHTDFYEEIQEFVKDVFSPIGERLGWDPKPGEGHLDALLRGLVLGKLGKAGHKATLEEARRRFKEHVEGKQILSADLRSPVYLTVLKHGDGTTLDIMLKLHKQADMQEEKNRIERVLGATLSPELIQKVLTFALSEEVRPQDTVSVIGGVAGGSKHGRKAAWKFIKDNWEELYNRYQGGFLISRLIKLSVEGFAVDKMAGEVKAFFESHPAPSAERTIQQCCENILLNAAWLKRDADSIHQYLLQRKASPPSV
UniProt P54578, whole entry: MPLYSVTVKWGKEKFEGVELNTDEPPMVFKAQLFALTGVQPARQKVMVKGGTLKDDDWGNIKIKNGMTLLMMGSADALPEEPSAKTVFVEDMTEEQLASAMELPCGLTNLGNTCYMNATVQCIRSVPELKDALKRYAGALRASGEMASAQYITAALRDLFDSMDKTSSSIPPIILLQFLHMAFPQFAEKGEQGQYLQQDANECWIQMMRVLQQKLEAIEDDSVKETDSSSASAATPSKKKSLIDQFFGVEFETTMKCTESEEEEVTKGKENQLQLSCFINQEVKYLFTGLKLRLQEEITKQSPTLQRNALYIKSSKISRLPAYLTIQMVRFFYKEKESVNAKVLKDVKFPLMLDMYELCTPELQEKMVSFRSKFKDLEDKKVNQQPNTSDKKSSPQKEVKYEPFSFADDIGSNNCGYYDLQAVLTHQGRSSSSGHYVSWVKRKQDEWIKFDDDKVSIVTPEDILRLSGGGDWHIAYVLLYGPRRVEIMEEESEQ
UniProt P30872, whole entry: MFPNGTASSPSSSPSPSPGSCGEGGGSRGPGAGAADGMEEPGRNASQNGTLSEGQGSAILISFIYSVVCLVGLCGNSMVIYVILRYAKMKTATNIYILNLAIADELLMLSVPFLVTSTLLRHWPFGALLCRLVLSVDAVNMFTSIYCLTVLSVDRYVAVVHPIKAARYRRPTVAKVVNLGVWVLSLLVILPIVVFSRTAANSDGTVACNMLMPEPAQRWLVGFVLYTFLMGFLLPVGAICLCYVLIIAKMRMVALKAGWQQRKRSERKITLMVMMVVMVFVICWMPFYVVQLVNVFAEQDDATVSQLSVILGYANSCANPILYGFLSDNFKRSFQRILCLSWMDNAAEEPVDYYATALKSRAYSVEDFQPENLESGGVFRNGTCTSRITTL
UniProt P0C6Y4, 1686-1922 N1686S/I1722L/T1724W limits assumed: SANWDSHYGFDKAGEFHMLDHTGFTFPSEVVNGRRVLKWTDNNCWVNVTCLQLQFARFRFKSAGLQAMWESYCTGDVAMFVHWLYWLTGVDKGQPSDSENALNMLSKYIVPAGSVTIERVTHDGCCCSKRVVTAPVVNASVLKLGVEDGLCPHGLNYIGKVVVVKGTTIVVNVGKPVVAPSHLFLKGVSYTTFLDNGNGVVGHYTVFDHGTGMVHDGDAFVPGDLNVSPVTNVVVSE
UniProt P41143, whole entry: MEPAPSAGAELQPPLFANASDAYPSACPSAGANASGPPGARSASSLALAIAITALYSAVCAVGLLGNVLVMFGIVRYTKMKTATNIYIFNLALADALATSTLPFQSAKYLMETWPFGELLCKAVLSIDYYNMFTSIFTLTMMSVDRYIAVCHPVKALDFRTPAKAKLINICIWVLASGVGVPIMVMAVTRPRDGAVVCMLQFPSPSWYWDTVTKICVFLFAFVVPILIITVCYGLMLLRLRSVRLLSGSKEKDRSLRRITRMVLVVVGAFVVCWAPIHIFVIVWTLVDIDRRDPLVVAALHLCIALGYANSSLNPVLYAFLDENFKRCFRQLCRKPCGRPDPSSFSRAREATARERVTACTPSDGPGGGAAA

Compound = C[C@@H]1NC(=O)[C@H](CCCNC(=N)N)NC(=O)[C@H](CCCNC(=N)N)NC(=O)[C@@H]2CCCN2C(=O)[C@H](CO)NC(=O)[C@@H]2CSSC[C@H](NC(=O)CN)C(=O)N[C@@H](CSSC[C@@H](C(N)=O)NC(=O)[C@H](CO)NC(=O)[C@H](CCCNC(=N)N)NC1=O)C(=O)N[C@@H](CO)C(=O)N[C@@H](Cc1c[nH]cn1)C(=O)N1CCC[C@H]1C(=O)N[C@@H](C)C(=O)N2; target = Neuronal acetylcholine receptor; alpha9/alpha10 (Homo sapiens, UniProt Q9GZZ6+Q9UGM1); assay = ion current, antagonist; system = Xenopus oocytes; conditions = 10 µM, 5 min, together with: acetylcholine; how to read = baseline: control; measurement = remaining response; value = 10 ± 8%
Compound = c1cc[n+](CCCCCCCCCC[n+]2cccc3ccccc32)cc1; target = Acetylcholinesterase (ACHE, Homo sapiens, UniProt P22303); how to read = baseline: BChE IC50 over AChE IC50; measurement = selectivity ratio; value = 630
Compound = COc1ccc(CN[C@@H]2CO[C@H](C(c3ccccc3)c3ccccc3)C[C@H]2O)cc1; target = Muscarinic acetylcholine receptor M5 (CHRM5, Homo sapiens, UniProt P08912); assay = radioligand binding; conditions = 10 µM, together with: [3H]QNB; measurement = inhibition; value = 16%
Compound = Cc1ccc(-c2csc(NP(=O)(O)OCC3OC(n4c[n+](Cc5ccccc5)c5c(=O)[nH]c(NC(=O)c6ccccc6)nc54)C4OC(C)(C)OC34)n2)cc1 (stereo not shown); target = Eukaryotic translation initiation factor 4E (EIF4E, Homo sapiens, UniProt P06730); assay = item: EIF4E; system = MCF7; conditions = concentration not given, unit not given; how to read = baseline: reference protein; measurement = protein level; value = 72.5
Compound = COC(=O)[C@@H]1C=C(OC(=O)c2ccc(O)c(Br)c2)C(=O)[C@H]2[C@@]1(C)CC[C@H]1C(=O)O[C@H](c3ccoc3)C[C@]21C; target = Mu-type opioid receptor, with beta-arrestin-2 (OPRM1, Homo sapiens, UniProt P35372); assay = β-arrestin-2 vs cAMP, agonist; how to read = baseline: DAMGO, higher = β-arrestin-2 bias; measurement = bias factor; value = 0.57
Compound = N#Cc1ccc(-c2ccc(COCCc3ccc(-c4nc5cc(-c6ccccc6)ccn5c4Nc4ccc(C(=O)O)cc4)cc3)cc2)nc1; target = Tyrosyl-DNA phosphodiesterase 2 (TDP2, Homo sapiens, UniProt O95551); how to read = baseline: TDP1 IC50 over TDP2 IC50; measurement = selectivity ratio; value = > 36
Compound = Oc1cc(Cn2cc(C3CC3)nn2)ccc1Oc1ccccc1Cl; target = inhA; conditions = 20 °C, EI* to EI; measurement = reverse isomerization rate k6; value = 0.0047 ± 0.0011 min⁻¹
Compound = CSCC[C@H](NC(=O)[C@H](Cc1ccccc1)NC(=O)CNC(=O)CNC(=O)[C@@H](N)Cc1ccc(O)cc1)C(=O)O; target = Puromycin-sensitive aminopeptidase (Rattus norvegicus, UniProt F1M9V7); assay = substrate; conditions = rat enzyme, MW 100 kDa; measurement = kcat; value = 10.3 s⁻¹
Compound = ON=C1c2nonc2C(=NO)c2nonc21; target = Ubiquitin carboxyl-terminal hydrolase 14 (USP14, Homo sapiens, UniProt P54578); assay = inhibitor; conditions = 17 µM, 26S proteasome-bound; measurement = inhibition; value = 91%
Compound = CC(C)C[C@H](NC(=O)[C@@H]1C[C@@H](O)CN1C(=O)[C@@H]1CSSC[C@H](NC(=O)[C@@H](NC(=O)[C@@H]2CCCN2)C(C)C)C(=O)N[C@H](Cc2c[nH]c3ccccc23)C(=O)N[C@@H](CCCCN)C(=O)N[C@@H](Cc2ccccc2)C(=O)NCC(=O)N1)C(=O)O; target = Somatostatin receptor type 1 (SSTR1, Homo sapiens, UniProt P30872); assay = G protein dissociation, agonist; conditions = 1 µM, together with: GαoA; measurement = activation; value = ~30%
Compound = CC(C)[C@H](NC(=O)[C@H](CC(=O)O)NC(=O)CNC(=O)CNC(=O)CNC(=O)[C@H](CCCCN)NC(=O)[C@H](CCCCN)NC(=O)[C@H](CCCCN)NC(=O)[C@H](Cc1ccccc1)NC(=O)c1ccc(N=Nc2ccc(N(C)C)cc2)cc1)C(=O)N[C@@H](CCCCN)C(=O)N[C@@H](CCC(=O)O)C(=O)NCCNc1cccc2c(S(=O)(=O)O)cccc12; target = Replicase polyprotein 1ab, papain-like protease 2 (rep, Porcine epidemic diarrhea virus, UniProt P0C6Y4, I1722L/N1686S/T1724W); assay = substrate; measurement = Km; value = 39.6 ± 15.6 µM
Compound = CN1CC[C@]23c4c5ccc(O)c4O[C@H]2c2ncc(-c4ccc(Cl)cc4)cc2C[C@@]3(OCCCc2ccccc2)[C@H]1C5; target = Delta-type opioid receptor (OPRD1, Homo sapiens, UniProt P41143); assay = agonist; system = CHO membranes; measurement = Emax; value = 73 ± 1.5%
Compound = Cc1ccccc1Oc1ccc(Cn2cc(C3CC3)nn2)cc1O; target = inhA; conditions = 20 °C, EI to EI*; measurement = isomerization rate k5; value = 1.2 min⁻¹

Repeated from above:
Compound = N#Cc1ccc(-c2ccc(COCCc3ccc(-c4nc5cc(-c6ccccc6)ccn5c4Nc4ccc(C(=O)O)cc4)cc3)cc2)nc1; target = Tyrosyl-DNA phosphodiesterase 2 (TDP2, Homo sapiens, UniProt O95551); how to read = baseline: TDP1 IC50 over TDP2 IC50; measurement = selectivity ratio; value = > 36
Compound = Oc1cc(Cn2cc(C3CC3)nn2)ccc1Oc1ccccc1Cl; target = inhA; conditions = 20 °C, EI* to EI; measurement = reverse isomerization rate k6; value = 0.0047 ± 0.0011 min⁻¹
